Measurements gathered from unrelated publications.
Numbered parts are unrelated; each lists some results of a single study. Changes are numbered by the printed parent chain.

Study 1
Target: ABI1, truncated, D143A, DHFR fusion (Arabidopsis thaliana)
Technique: DHFR PCA, deep sequencing
Matrix: yeast
Setting: methotrexate growth selection, single substitutions
Added: (+)-ABA 710 µM
Relative to: wild-type fitted maximum
Reading: higher = stronger binding
Starting sequence: PYL1, truncated, DHFR fusion (Arabidopsis thaliana); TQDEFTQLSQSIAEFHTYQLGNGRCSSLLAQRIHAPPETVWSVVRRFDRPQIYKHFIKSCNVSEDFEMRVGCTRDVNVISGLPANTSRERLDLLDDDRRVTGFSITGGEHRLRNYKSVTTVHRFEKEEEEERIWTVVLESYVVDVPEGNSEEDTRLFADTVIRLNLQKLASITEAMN; partner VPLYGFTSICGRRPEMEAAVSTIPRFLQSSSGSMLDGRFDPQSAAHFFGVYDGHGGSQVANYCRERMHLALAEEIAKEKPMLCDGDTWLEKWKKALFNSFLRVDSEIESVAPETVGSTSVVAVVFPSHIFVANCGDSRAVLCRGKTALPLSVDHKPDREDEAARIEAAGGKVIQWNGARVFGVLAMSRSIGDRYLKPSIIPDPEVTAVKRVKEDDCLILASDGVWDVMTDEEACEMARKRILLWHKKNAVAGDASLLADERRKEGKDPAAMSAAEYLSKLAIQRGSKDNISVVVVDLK
Variant | relative binding score
V136Q | 81.4%
S140A | 20.4%
F124E | 107%
P50V | 77.4%
K58Y | 96%
E4R | 92.5%
D96Y | 58.6%
F103E | -6.44%
A84L | 18%
L20N | 102%
C60K | -0.0847%
A30F | 101%
T39V | 105%
R45T | 66.8%
R163E | 87.5%
V145H | 67.6%

Study 2
Target: UBE2U UBC core domain (UniProt Q5VVX9)
Technique: yeast two-hybrid
Matrix: yeast
Setting: mostly zero background
Relative to: not given
Reading: higher = stronger interaction
B1: MSL2 RING domain (UniProt Q9HCI7); chain LLPYFRQSLSCCVCGHLLQDPIAPTNSTCQHYVCKTCKGKKMMMKPSCSWCKDYEQFEENKQ
B2: TRIM15 RING domain (UniProt Q9C019); chain SLKVVHELPACTLCAGPLEDAVTIPCGHTFCRLCLPALSQMGAQSSGKILLCPLCQEEEQAETPMA
B3: RNF43 RING domain (UniProt Q68DV7); chain SGSSCSSAPVCAICLEEFSEGQELRVISCLHEFHRNCVDPWLHQHRTCPLCMFNITEGDSFS
B4: RNF150 RING domain (UniProt Q9ULK6); chain DKETESDFDNCAVCIEGYKPNDVVRILPCRHLFHKSCVDPWLLDHRTCPMCKMNILKALGIP
B5: RNF32 RING domain (UniProt Q9H0A6); chain SLLQGDSVQPCPICKEEFELRPQVLLSCSHVFHKACLQAFEKFTNKKTCPLCRKNQYQTRVIH
B6: ANKIB1 RING domain (UniProt Q9P2G1); chain LSPGDLDTSLCDICMCSISVFEDPVDMPCGHDFCRGCWESFLNLKIQEGEAHNIFCPAYDCFQLVPVDIIE
B7: TRIM10 RING domain (UniProt Q9UDY6); chain SVTSLADEVNCPICQGTLREPVTIDCGHNFCRACLTRYCEIPGPDLEESPTCPLCKEPFRPGSFRP
B8: RNF5 RING domain (UniProt Q99942); chain ERGGAGATFECNICLETAREAVVSVCGHLYCWPCLHQWLETRPERQECPVCKAGISREKVVP
Construct (chain): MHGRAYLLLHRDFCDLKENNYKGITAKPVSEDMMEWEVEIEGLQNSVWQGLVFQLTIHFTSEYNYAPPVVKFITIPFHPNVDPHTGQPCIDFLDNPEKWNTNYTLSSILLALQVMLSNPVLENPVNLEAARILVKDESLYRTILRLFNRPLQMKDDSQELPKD
Sequence | lacZ reporter activity
B1 (MSL2 RING domain) | 10100
B2 (TRIM15 RING domain) | 0
B3 (RNF43 RING domain) | 0
B4 (RNF150 RING domain) | 14700
MANWVFCNRCFQPPHRTSCFSLTNCGHVYCDACLGKGKKNECLICKAPCRTVLLSK (RNF212 RING domain (UniProt Q495C1)) | 0
B5 (RNF32 RING domain) | 0
KIKDLNEHIVCCLCAGYFVDATTITECLHTFCKSCIVKYLQTSKYCPMCNIKIHETQPLL (PCGF1 RING domain (UniProt Q9BSM1)) | 8720
B6 (ANKIB1 RING domain) | 0
KRQCSDVDDICSICQAEFQKPILLICQHIFCEECMTLWFNREKTCPLCRTVISDHINKW (RNFT1 RING domain (UniProt Q5M7Z0)) | 14700
B7 (TRIM10 RING domain) | 0
B8 (RNF5 RING domain) | 12500

Study 3
Target: CCNA1, cyclin fold, Cln2 fusion (human)
Technique: yeast growth competition, sequencing
Matrix: yeast
Setting: weak parent motif
Relative to: not given
Reading: higher = stronger binding
Starting sequence: CDKN1B docking peptide (human); PSACRNLFGPVDH
Variant | normalised enrichment score
H13R | 0.371
C4F | 0.13
R5D | 0.297
L7G | 0.271
H13Y | 0.224
R5Q | 0.303
F8A | 0.356
R5H | 0.152
P1R | 0.397
L7N | -0.0284
P1M | 0.107
F8K | 0.327
L7V | 0.37
V11Y | 0.372
D12I | 0.375
C4Y | 0.33

Study 4
Target: Interferon regulatory factor 5, full length, phosphomimetic (IRF5, Homo sapiens, UniProt Q13568-2, residues 1-514, S451D/S453D/S456D/S462D)
Technique: protein-binding microarray
Form: double-stranded DNA, one strand shown
Matrix: in vitro
Concentration: 940 nM top
Setting: 60-bp whole probe
Added: salmon DNA 0.4 mg/ml
Relative to: random background probes
Reading: higher = stronger binding
Shared flanks, not repeated: GCCTAGCAC … GTCTTGATTCGCTTGACGCTGCTG
Strand | fitted relative affinity
TCAAATTTTCAATTCCTACTGTGCTAG | 0.274 z-score
GACGATATCAGTATCGAGTCGTGCTAG | 2.93 z-score
GACGAACTGGGGATTGGAGACGTGCTA | 0.295 z-score
TTCGGTCTCCTTCTCCTTTAGTGCTAG | 1.02 z-score
CTTTCTTTACTTCACTCTCTGTGCTAG | 2.24 z-score
TTAGAACTGTGGTTTCGATTAGTGCTA | 6.33 z-score
CTGGAATCAATTTATTGACCGTGCTAG | -0.667 z-score
AGTGCTATACCACTCTTGCTGTGCTAG | 0.265 z-score
GACGATATCGGGACTGAAGACGTGCTA | -0.0845 z-score
TTAGGTTTTGGTATCGGTTAGTGCTAG | 8.74 z-score
TTCGGTCTCCTACTGCTTTAGTGCTAG | 0.65 z-score
GACGGTCTCCTACCGCTGACGTGCTAG | -0.188 z-score
GACGGTTGCGGGTTTCGGGACGTGCTA | 2.63 z-score
TTAGATTTCGGGACTGGTTTAGTGCTA | 0.755 z-score
GACGATTTCAGACTGGAGTCGTGCTAG | -0.56 z-score
TTAGGTCTCCTACCGCTTTAGTGCTAG | -0.172 z-score
AGCTTTCCCAACATCAGAGCGTGCTAG | 0.39 z-score
GAAGTTCTAAATATCTTTGTGTGCTAG | -0.0649 z-score

Study 5
Target: RNA binding protein fox-1 homolog 2, RRM domain, GST-SBP tag (RBFOX2, Homo sapiens, UniProt O43251-10, residues 100-194)
Technique: RNA Bind-n-Seq
Form: RNA
Matrix: in vitro
Concentration: 365 nM
Setting: natural RNA segment, single round, ends assumed
Relative to: no-protein control
Reading: higher = stronger binding
Residues (chain): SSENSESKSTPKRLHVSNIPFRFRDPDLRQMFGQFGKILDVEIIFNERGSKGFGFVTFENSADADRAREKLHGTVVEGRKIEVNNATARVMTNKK
Strand | RBNS enrichment (R)
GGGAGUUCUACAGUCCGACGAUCCUGUGAGGAGUUACGGAGAGGGCUUUGUCUCUAGAGCAGAAGAGAAUGAUGGGACGGCCUGAUGCUGUCAUGCUCUCCACUGCACCUGUGGCAGCCUCCUGAGAGCCACCUGGAAUUCUCGGGUGCCAA | 0.569
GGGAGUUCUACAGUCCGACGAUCUGUUCUUUCUUCCCAUCUAGGGCUAUUGCCCAAGGCCCAGAGAAACCAAUAAACUUGUACACGAGUGAUCCACAGUUGAGUCAAUGUGGCUCCGAAGGGGCGCUCUUGUCUGGAAUUCUCGGGUGCCAA | 0.28
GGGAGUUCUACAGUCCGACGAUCUGGUGUUGAUUUUCCUCCCUGCAGAGCCAAUGGUGCACAUUGGUUUAAGCCCAGAGAUCCUGCUUGAGCCCUGGACUCAUCUUGGGAAGGGCCAUGGGAGGUCCUGGCUAUGGAAUUCUCGGGUGCCAA | 0.595
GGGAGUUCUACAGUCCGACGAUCAAAGGAGGUCUUCUCUCUGCCCUGGAGGAGGACAUAUAGCUGAUUUCUGUUCUUUUAACUCUUAAAAAUCUCUUUCUAAACUUGGAGUGGUUUAUAUUCGCCCGAGCUCCUGGAAUUCUCGGGUGCCAA | 0.751
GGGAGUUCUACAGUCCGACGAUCAUUUGCUUAGAUGGUGUUUGUGGGAUCACCUGCAGAUUUAAAGCCUACUCUGCCACAGACUCGAGUAAGAAAAUGUUCUCUUGAUGACACAGUGCUCCUACUCUAUCCACUGGAAUUCUCGGGUGCCAA | 0.367
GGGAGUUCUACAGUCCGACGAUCUUAGGACGAACUGAAACGGUACAAACUGGUUAACACUACAGCGCCUUUUGCACAAAUGCUUUAGAUUGUAUGGUCUACACUCAGGAAGACACUAGGUCACCCAGGCAAAGUGGAAUUCUCGGGUGCCAA | 0.35
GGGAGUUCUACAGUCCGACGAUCUCACAUACAGUACAGACAACCUCAAAAAUCUGUUUAUAUUAGUGUAAAUAGAAAAAUGGUAGACCGCUGUCUAGUUUUCUCCGCAGGCAUUUUUGGGAGUGUAUCUAUAGUGGAAUUCUCGGGUGCCAA | 0.527
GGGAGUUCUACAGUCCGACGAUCUACUUUAACGUGUAUAGAUAUCUUGUAAACUUGUAUUGUGGAUGUGUAAAUAAUAUGUACUUUGGGUUUUUAACACCGCAUGUAAAGUCAAAAUAAAAUAUCCAAGUCAUUGGAAUUCUCGGGUGCCAA | 26.1
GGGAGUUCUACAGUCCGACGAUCGAUAUCAAGUUUCUUCAUAUCAAAGCUUCAUUGGUGACCUCAUUUGCUUUACAAGUGACCAGCCAUCUUGCAGGCUUCAUGCUUCUGAGAGCCUUACUUAGAAGAUGCUGUGGAAUUCUCGGGUGCCAA | 0.222
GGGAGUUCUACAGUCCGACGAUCUUCACUAUUCCAUUUGUGAAGUGUACUUUCAUUCUAAAGCCUCAGUAUAAGGCAUCCUAACUUACAAGAGUAACUUUCCAUGGACAUUUAACAUCCUUCCAAUUUUAUUCUGGAAUUCUCGGGUGCCAA | 0.334
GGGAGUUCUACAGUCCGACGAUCGCCUGAGGAGCCCAGAGCACUUGACUGAGCUUCCCGGAAACUGGCCCUAACCUGUCUGUCUCCGUGGAUGCAUCCUAACCCUAAGGAAAAUUCCCCAGGCUGUGAUCUACUGGAAUUCUCGGGUGCCAA | 0.352
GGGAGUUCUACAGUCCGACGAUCUUGCACACCUGACUCUGUCACUCAAGCCUUUCUCCACCAGGCCCCUCAUCUGAAUACCAAGCACAGAAAUGAGUGGUGUGACUAAUUCCUUACCUCUCCCAAGGAGGGUAUGGAAUUCUCGGGUGCCAA | 0.292

Repeated from above (study 1):
Variant | relative binding score
E4R | 92.5%
D96Y | 58.6%
F103E | -6.44%
A84L | 18%
